# Measurements pooled from the literature.
# A part holds a random share of what one study measured. Positions count from the first letter of the parent shown.

# Set 1 — method: RNA Bind-n-Seq; molecule type: RNA; medium: in vitro; concentration: 365 nM; relative to: no-protein control; direction: higher = stronger binding
# Target: RNA binding protein fox-1 homolog 2, RRM domain, GST-SBP tag (RBFOX2, Homo sapiens, UniProt O43251-10, residues 100-194)
# Setting: natural RNA segment, single round, ends assumed
# Shared flanks, not repeated: GGGAGUUCUACAGUCCGACGAUC … UGGAAUUCUCGGGUGCCAA
# Residues (chain): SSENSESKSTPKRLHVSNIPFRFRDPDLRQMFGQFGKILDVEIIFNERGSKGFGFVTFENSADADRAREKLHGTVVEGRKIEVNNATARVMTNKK
Sequence,RBNS enrichment (R)
ACAGAGGAGAUUAGGAUUUCAAAGAACAAAGAACUGCCCAGUUUCUAUUGGGCUCUUAGACACAGACCUGAGCCAUGAACCCAAGCCACGUAUCUACACCAUAGCUGCCU,0.404
CCGCAUCCUCCUUCCCAGGUGUUGGACCAAGACCCGCCCCGCUGCCUGGCACUGCUUGGAGGUGUGCAGAGCGGAAGCAAGUGGAGCAUCCGGGGCAUUCCUGUUGACCC,2.38
GGAGUGGAGAGGAAAAGCAUCAGAAAGAGGCAGACCAUCCACCAGGCCUUUGAGAAAGGGUAGAAUUCUGGCUGGUAGAGCAGGUGAGAUGGGACAUUCCAAAGAACAGC,0.605
GUUUCAGUCUACCCUUAAAGAAGUCAAGCCAAAAAUAGAGGUGAGGGCUACUUUGCUUCUUAAUGUAGGCCUACUGUGCACACCACACACUCUCUCUGAGGGACUGUAGC,0.337
GCAAAGGAACAAGGUUUUAUGUAGGUGAGAGAAAGCAUUUGUACGAAGUUAGAUUUGAACAUAGAUAAGAUAGGUUAUUCCAGUUGAGAAUAUUGUUCGAAGAAUGUCUG,1.4
GUCAGAACACGGUUGACCUGCCGCCUUCUUGAACCUGGUGGCCCCCGUUGGAACUAUCAGUGGCGUCUCCCAUGCACACGCCCUCUGCUUUCUCUUUCCUAGACUCGCGG,0.425
UUCAAGGCAUCUCUUCCCCAUUCACCUAAAACCUCUGGCCUGAACAGAAAAGAGCCGGAGCUCUAAUGCAGGCUGUGUGGCCGCCCUUGUCUUAGGCUCAUUUGUUCCUU,0.427
UCAAGAAGUGCCUAAAAAUGGAUUUGUGUUGAUUUUAAGCCCAUCUAAUAAAUUAUAUGUAUUUUCUUGGUAUCGUAUGGCUUGUCUUAACUGAUGACACAGCCUAGAGG,0.357

# Set 2 — method: protein-binding microarray; molecule type: double-stranded DNA, one strand shown; medium: in vitro; concentration: 250 nM; setting: 60-bp whole probe; together with: salmon DNA 0.4 mg/ml; relative to: random background probes; direction: higher = stronger binding; shared flanks, not repeated: GCCTAGCAC … GTCTTGATTCGCTTGACGCTGCTG
# Target: Interferon regulatory factor 7, full length, phosphomimetic (IRF7, Homo sapiens, UniProt Q92985, residues 1-503, S101K/S471D/S472D/S475D/S476D/S477D/S483D/S484D/S487D)
# Construct (chain): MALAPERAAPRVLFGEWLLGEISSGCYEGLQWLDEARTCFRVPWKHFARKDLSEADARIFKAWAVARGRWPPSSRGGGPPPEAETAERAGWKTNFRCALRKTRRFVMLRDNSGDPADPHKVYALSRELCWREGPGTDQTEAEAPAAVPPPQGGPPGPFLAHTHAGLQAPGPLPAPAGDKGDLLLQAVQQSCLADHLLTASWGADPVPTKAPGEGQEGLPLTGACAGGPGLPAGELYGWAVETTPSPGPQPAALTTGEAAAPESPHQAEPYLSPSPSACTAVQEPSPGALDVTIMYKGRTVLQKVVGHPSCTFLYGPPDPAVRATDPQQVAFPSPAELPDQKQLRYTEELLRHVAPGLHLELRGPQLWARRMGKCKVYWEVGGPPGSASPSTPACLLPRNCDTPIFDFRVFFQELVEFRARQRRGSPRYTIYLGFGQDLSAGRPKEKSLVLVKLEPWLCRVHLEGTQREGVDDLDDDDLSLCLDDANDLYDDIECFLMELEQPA
Sequence,log fluorescence [z-score]
TTCGGTTTCGGTCTCGGTTAGTGCTAG,9.32
GTGTTTGTCCCTATTTAAGAGTGCTAG,3.51
GTCACATTGTGCAATCTTAATGTGCTA,0.58
TTAGGTAACGACTTTCGGTTAGTGCTA,1.68
GACGGTCTCGCTATCGGGACGTGCTAG,0.601
TGTTCTTTTCTGTTGTCTGTGTGCTAG,2.17
TCATCTCTTTCCTTCTTACTGTGCTAG,1.39
GCCGGTTCCCTTTTCCTGACGTGCTAG,3.15
GACGGACTACTTATCCTGACGTGCTAG,-0.248
TTAGATATCAGGCTGGATTAGTGCTAG,-0.286
GACGGTTTCGGTTTCGAGACGTGCTAG,14.8

# Set 3 — target: CCNA1, cyclin fold, Cln2 fusion (human); method: yeast growth competition, sequencing; medium: yeast; setting: weak parent motif; relative to: not given; direction: higher = stronger binding
# Starting sequence: RRM2 docking peptide (human); SKTARRIFQEPTE; partner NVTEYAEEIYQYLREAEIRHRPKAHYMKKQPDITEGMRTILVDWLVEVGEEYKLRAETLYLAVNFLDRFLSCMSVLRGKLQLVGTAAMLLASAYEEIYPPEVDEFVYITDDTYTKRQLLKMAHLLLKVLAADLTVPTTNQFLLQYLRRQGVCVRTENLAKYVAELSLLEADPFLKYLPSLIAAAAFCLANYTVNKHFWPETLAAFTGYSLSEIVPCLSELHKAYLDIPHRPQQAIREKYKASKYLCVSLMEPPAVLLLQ
Variant,normalised enrichment score
SKTARRIFQEPAE [T12A],-0.293
AKTARRIFQEPTE [S1A],0.0402
SKTARAIFQEPTE [R6A],0.287
SKTARRIFAEPTE [Q9A],0.209
SKTAARIFQEPTE [R5A],0.281
SKTARRIFQEPTA [E13A],0.0684

# Single results of other studies
Molecule,target,test,test system,conditions,scale,endpoint,value
"PhoQ, residues 284 288 289 292 302 303 SLSVQF","PhoP, residues 12 14 15 18 19 SPWRL (Escherichia coli, UniProt P23836)","Sort-seq, refers to: YFP reporter",E. coli,"PhoQ-PhoP variant library, together with: 10 µM Mg2+","relative to: high Mg2+ state, higher = stronger signaling",fold induction,7.88

# A few entries again (set 2):
Sequence,log fluorescence [z-score]
TTAGATATCAGGCTGGATTAGTGCTAG,-0.286
GTCACATTGTGCAATCTTAATGTGCTA,0.58
GCCGGTTCCCTTTTCCTGACGTGCTAG,3.15
GACGGACTACTTATCCTGACGTGCTAG,-0.248
